Published values pooled from the literature.
Each line is one published result; not all experiments were run side by side. ± gives the spread as reported.
SMC6: SMC6 (Saccharomyces cerevisiae, UniProt Q12749)
UniProt Q12749, sequence (whole entry, looked up): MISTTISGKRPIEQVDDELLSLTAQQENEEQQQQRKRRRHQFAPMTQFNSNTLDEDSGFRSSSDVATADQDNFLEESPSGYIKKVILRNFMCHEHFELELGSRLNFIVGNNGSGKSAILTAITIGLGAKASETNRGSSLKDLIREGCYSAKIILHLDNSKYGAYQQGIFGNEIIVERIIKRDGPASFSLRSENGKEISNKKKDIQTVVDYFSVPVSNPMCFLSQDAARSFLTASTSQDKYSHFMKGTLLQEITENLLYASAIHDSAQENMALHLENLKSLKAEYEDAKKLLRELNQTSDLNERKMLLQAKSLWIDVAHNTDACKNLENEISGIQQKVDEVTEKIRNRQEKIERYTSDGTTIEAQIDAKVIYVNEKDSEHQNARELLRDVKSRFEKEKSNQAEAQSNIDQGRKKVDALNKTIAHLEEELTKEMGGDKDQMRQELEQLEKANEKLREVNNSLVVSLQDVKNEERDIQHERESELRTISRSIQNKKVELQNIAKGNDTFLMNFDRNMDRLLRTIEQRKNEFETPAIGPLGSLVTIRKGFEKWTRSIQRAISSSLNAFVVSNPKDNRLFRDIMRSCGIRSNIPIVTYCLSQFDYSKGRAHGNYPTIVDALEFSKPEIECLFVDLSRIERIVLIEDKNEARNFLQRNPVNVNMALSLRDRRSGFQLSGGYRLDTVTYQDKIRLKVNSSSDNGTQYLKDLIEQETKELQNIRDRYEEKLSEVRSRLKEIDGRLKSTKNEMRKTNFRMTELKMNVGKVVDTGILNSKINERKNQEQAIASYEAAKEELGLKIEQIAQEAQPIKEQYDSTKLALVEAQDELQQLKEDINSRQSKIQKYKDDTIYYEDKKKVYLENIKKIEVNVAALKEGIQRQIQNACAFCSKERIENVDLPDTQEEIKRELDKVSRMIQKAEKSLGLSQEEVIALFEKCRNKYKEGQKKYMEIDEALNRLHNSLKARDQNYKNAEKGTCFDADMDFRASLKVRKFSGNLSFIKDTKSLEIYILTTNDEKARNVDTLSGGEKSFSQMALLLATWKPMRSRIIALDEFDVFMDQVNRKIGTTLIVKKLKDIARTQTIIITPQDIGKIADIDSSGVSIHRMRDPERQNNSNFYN
NECTIN4: NECTIN4 32-349 (Homo sapiens, UniProt Q96NY8)
UniProt Q96NY8, sequence (whole entry, looked up): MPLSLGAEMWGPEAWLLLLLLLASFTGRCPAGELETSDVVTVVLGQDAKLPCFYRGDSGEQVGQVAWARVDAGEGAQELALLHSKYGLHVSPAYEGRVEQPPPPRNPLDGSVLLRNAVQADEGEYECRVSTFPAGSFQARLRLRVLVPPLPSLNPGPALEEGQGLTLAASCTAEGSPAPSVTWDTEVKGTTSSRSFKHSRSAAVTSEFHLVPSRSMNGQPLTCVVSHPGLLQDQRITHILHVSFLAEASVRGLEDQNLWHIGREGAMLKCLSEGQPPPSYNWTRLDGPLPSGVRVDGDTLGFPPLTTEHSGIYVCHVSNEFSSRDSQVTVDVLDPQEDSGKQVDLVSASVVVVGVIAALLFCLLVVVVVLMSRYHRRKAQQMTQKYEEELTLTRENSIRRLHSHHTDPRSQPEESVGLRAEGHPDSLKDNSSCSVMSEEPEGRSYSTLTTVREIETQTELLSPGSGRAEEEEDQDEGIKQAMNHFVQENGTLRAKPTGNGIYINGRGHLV
B1: RSPO4/IgG1 Fc RSPO4 32-137 Q65R/N297Q; CPT2 conjugated via azide click; chain GGNCTGCIICSEENGCSTCQQRLFLFIRREGIRRYGKCLHDCPPGYFGIRGQEVNRCKKCGATCESCFSQDFCIRCKRQFYLYKGKCLPTCPPGTLAHQNTRECQGGGGGSGGGGSGGGGS
B2: EFR3A 721-791 (Homo sapiens, UniProt Q14156); chain SNTEEITFEALKKAIDTSGMEEQEKEKRRLVIEKFQKAPFEEIAAQCESKANLLHDRLAQILELTIRPPPS
B3: mdfA (Bacillus subtilis, UniProt O31597); chain MLFLHDVWVNWFEGEENGYNVCHFHEWRKEDTVELLDQVPLLRVPSVLFHYIENDLSELPKGLLEDVHQKSYIRKNHERTKLEYCFVVTDGIGILAVDTIGYTIPVRKSRLIPRQEQLVYEMVKDVEPETYEFEPKKLESSKEYHILSLAPEHVRGLTRKERQIKQLMFMALDQLKGLKNRAEIGYWYTEWNPHMYEQIKRMSFEEIWDMLYNETIEGWSDKHLAFCENLIKGQPFFEKLWEMENESKVN
B4: STAMBPL1 264-436 (Homo sapiens, UniProt Q96FJ0); chain EGLRCVVLPEDLCHKFLQLAESNTVRGIETCGILCGKLTHNEFTITHVIVPKQSAGPDYCDMENVEELFNVQDQHDLLTLGWIHTHPTQTAFLSSVDLHTHCSYQLMLPEAIAIVCSPKHKDTGIFRLTNAGMLEVSACKKKGFHPHTKEPRLFSICKHVLVKDIKIIVLDLR
B5: SEPTIN7 (Homo sapiens, UniProt Q16181); sequence looked up; chain MSVSARSAAAEERSVNSSTMVAQQKNLEGYVGFANLPNQVYRKSVKRGFEFTLMVVGESGLGKSTLINSLFLTDLYSPEYPGPSHRIKKTVQVEQSKVLIKEGGVQLLLTIVDTPGFGDAVDNSNCWQPVIDYIDSKFEDYLNAESRVNRRQMPDNRVQCCLYFIAPSGHGLKPLDIEFMKRLHEKVNIIPLIAKADTLTPEECQQFKKQIMKEIQEHKIKIYEFPETDDEEENKLVKKIKDRLPLAVVGSNTIIEVNGKRVRGRQYPWGVAEVENGEHCDFTILRNMLIRTHMQDLKDVTNNVHYENYRSRKLAAVTYNGVDNNKNKGQLTKSPLAQMEEERREHVAKMKKMEMEMEQVFEMKVKEKVQKLKDSEAELQRRHEQMKKNLEAQHKELEEKRRQFEDEKANWEAQQRILEQQNSSRTLEKNKKKGKIF
B6: TIMP2 27-153 (Homo sapiens, UniProt P16035); sequence looked up; chain CSCSPVHPQQAFCNADVVIRAKAVSEKEVDSGNDIYGNPIKRIQYEIKQIKMFKGPEKDIEFIYTAPSSAVCGVSLDVGGKKEYLIAGKAEGDGKMHITLCDFIVPWDTLSTTQKKSLNHRYQMGCE
B7: DLL4 27-400 G28S/F107L/I143F/H194Y/L206P/N257P/T271L/F280Y/S301R/Q305P (Homo sapiens, UniProt Q9NR61); sequence looked up; chain SSVFQLQLQEFINERGVLASGRPCEPGCRTFFRVCLKHFQAVVSPGPCTFGTVSTPVLGTNSFAVRDDSSGGGRNPLQLPLNFTWPGTFSLIIEAWHAPGDDLRPEALPPDALISKFAIQGSLAVGQNWLLDEQTSTLTRLRYSYRVICSDNYYGDNCSRLCKKRNDYFGHYVCQPDGNPSCLPGWTGEYCQQPICLSGCHEQNGYCSKPAECLCRPGWQGRLCNECIPHPGCRHGTCSTPWQCLCDEGWGGLYCDQDLNYCTHHSPCKNGATCRNSGPRSYTCTCRPGYTGVDCELELSECDSNPCRNGGSCKDQEDGYHCLCPPGYYGLHCEHSTLSCADSPCFNGGSCRERNQGANYACECPPNFTGSNCE
B8: CDC48A 1-190 (Arabidopsis thaliana, UniProt P54609); chain MSTPAESSDSKSKKDFSTAILERKKSPNRLVVDEAINDDNSVVSLHPATMEKLQLFRGDTILIKGKKRKDTVCIALADETCEEPKIRMNKVVRSNLRVRLGDVISVHQCPDVKYGKRVHILPVDDTVEGVTGNLFDAYLKPYFLEAYRPVRKGDLFLVRGGMRSVEFKVIETDPAEYCVVAPDTEIFCEG
B9: SIGLEC15 20-263 (Homo sapiens, UniProt Q6ZMC9); sequence looked up; chain FVRTKIDTTENLLNTEVHSSPAQRWSMQVPPEVSAEAGDAAVLPCTFTHPHRHYDGPLTAIWRAGEPYAGPQVFRCAAARGSELCQTALSLHGRFRLLGNPRRNDLSLRVERLALADDRRYFCRVEFAGDVHDRYESRHGVRLHVTAAPRIVNISVLPSPAHAFRALCTAEGEPPPALAWSGPALGNSLAAVRSPREGHGHLVTAELPALTHDGRYTCTAANSLGRSEASVYLFRFHGASGAST
UniProt P30411, sequence (whole entry, looked up): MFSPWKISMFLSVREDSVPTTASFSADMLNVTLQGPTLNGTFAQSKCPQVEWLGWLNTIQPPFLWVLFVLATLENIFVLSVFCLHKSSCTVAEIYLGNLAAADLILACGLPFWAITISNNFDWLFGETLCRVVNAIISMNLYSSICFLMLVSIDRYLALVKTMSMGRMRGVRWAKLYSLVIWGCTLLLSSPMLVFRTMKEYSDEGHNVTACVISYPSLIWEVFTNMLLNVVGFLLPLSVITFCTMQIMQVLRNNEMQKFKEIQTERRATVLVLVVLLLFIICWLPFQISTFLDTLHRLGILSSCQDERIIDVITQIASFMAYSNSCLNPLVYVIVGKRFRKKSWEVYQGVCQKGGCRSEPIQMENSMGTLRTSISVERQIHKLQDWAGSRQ
UniProt Q9SV55, sequence (whole entry, looked up): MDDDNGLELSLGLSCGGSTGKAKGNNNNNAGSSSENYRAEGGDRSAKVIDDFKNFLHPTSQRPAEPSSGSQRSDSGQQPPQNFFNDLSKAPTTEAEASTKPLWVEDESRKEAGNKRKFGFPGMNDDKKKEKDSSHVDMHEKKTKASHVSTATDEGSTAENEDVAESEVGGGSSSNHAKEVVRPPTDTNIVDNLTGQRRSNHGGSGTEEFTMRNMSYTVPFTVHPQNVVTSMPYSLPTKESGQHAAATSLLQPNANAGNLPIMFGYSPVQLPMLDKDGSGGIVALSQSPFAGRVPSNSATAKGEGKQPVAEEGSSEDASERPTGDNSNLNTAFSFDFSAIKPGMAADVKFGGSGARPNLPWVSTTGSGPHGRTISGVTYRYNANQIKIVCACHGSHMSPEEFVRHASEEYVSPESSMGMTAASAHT
UniProt Q8N5K1, sequence (whole entry, looked up): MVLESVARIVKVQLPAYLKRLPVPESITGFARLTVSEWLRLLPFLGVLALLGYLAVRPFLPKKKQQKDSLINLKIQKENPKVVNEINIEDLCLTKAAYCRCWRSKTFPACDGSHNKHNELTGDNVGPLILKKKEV
UniProt P08670, sequence (whole entry, looked up): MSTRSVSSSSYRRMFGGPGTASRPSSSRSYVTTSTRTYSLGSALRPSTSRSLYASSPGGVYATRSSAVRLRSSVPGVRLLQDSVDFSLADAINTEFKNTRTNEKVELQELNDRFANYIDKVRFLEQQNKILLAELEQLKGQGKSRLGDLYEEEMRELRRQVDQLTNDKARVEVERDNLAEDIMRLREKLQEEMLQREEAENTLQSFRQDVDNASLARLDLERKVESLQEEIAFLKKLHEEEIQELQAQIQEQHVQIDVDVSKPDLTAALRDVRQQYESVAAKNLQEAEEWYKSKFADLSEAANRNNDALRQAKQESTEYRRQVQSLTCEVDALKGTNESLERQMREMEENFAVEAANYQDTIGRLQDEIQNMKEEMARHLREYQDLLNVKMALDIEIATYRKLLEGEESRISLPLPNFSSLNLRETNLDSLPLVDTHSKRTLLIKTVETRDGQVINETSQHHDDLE
UniProt Q9HC52, sequence (whole entry, looked up): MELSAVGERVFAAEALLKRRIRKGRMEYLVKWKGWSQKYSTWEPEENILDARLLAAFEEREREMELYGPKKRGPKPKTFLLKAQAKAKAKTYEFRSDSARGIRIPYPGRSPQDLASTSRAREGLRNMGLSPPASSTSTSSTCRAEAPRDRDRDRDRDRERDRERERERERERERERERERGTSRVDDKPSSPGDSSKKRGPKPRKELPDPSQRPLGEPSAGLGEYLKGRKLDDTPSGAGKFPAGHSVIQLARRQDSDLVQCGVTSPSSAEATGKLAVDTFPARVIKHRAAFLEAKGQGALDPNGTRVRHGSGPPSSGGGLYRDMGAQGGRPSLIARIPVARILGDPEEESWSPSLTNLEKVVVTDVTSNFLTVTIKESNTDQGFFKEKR
UniProt Q14956, sequence (whole entry, looked up): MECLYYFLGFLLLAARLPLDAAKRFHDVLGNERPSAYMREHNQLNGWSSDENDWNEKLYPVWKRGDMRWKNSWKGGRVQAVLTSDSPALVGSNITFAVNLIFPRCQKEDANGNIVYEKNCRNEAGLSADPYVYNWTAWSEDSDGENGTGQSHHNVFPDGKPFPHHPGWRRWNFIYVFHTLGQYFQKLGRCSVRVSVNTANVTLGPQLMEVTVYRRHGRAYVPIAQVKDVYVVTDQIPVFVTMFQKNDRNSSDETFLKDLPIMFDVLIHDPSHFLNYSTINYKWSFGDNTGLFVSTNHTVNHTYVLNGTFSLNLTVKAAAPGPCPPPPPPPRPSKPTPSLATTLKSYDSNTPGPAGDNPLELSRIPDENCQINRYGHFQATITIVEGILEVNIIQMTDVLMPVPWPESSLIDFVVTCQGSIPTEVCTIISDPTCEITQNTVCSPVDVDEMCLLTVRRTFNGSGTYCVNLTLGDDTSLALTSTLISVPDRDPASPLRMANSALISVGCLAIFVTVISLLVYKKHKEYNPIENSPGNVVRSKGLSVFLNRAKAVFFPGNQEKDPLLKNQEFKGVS
UniProt P12314, sequence (whole entry, looked up): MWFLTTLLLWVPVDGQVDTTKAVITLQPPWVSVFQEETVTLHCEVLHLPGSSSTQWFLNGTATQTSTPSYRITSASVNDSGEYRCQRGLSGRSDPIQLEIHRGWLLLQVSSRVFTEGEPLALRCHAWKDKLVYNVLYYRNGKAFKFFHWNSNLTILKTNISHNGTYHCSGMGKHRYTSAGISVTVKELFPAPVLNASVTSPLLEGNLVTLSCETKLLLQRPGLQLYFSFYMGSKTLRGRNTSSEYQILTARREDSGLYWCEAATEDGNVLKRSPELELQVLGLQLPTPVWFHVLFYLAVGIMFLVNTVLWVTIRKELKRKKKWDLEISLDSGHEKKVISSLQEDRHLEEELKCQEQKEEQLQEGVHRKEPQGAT
UniProt Q12146, sequence (whole entry, looked up): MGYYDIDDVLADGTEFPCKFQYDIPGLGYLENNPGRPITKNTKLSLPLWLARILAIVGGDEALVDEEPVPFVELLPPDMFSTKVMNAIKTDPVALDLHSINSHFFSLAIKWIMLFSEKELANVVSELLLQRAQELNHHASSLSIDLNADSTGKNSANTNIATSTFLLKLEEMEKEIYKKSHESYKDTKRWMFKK
UniProt P04695, sequence (whole entry, looked up): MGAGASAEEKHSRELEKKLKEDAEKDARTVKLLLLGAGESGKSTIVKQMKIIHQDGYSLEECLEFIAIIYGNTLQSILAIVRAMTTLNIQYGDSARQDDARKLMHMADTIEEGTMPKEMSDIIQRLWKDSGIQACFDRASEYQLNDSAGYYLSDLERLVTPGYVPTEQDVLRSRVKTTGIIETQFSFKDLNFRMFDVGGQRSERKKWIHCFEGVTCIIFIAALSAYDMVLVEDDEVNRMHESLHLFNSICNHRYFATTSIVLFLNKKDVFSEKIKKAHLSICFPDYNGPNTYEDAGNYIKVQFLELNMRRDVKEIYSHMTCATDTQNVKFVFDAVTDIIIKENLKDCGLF

Substance | partner | test | system | conditions | scale | measurement | result
JAZ2 fragment (Arabidopsis thaliana) | NINJA 342-406 (Arabidopsis thaliana, UniProt Q9SV55) | competitor, AlphaScreen or HTRF |  |  |  | IC50 | 220 nM
FGA (Homo sapiens, UniProt P02671) | TRIM45 (Homo sapiens, UniProt Q9H8W5) | cross-linking MS |  | with: DSSO |  | cross-linked residues | K463 to K446
B1 | LGR4 (Homo sapiens, UniProt Q9BXB1) | cell viability | Fc fusion, 293T-LGR4 | 5 days |  | cytotoxic IC50 | 0.1 nM
ALB (Homo sapiens, UniProt P02768) | ZNF813 (Homo sapiens, UniProt Q6ZN06) | cross-linking MS |  | with: DSSO |  | cross-linked residues | K456 to K166
ACTA1 (Gallus gallus, UniProt P68139) | MYH1 (Oryctolagus cuniculus, UniProt A0A5F9CQ93) | laser trap |  | with: ATP 5 µM |  | binding event lifetime | 29 ± 1 ms
B2 (EFR3A 721-791) | TTC7B/FAM126B 1-308 | BLI |  |  |  | koff | 0.000121 s⁻¹
B3 (mdfA) | clpC N domain 1-150 (Bacillus subtilis, UniProt P37571) | ITC |  |  |  | ΔH | -4.66 kcal/mol
B4 (STAMBPL1 264-436) | Lys63-linked diubiquitin (Homo sapiens, UniProt P0CG48) | Lys63 diubiquitin cleavage, SDS-PAGE |  | 20-100 µM, 20 °C |  | kcat | 10.3 s⁻¹
B5 (SEPTIN7) | Septin2 (Mus musculus, UniProt P42208) | co-sedimentation |  |  |  | molecule per partner | 1
ecfT (Listeria monocytogenes) | EcfA' (Listeria monocytogenes) | SEC-MALS |  |  |  | subunits per oligomer | 1
trastuzumab-MMAE ADC IgG1 | FCGR1A (Homo sapiens, UniProt P12314) | BLI |  | ADC | relative to: unconjugated Trastuzumab, higher = weaker binding | KD fold increase | 1.4 fold
NSE3 (Saccharomyces cerevisiae, UniProt Q05541) | SMC6 | cross-linking MS |  | hits only |  | interaction screen | cross-linked
DYNLRB1/DYNLL1/DYNLT1/DYNC1LI2/DYNC1I2/DYNC1H1 dynein-1 complex (Homo sapiens) | HOOK3/NINL chimera Hook3 CC, NINL LIC-BD, HaloTag | pull-down |  |  |  | Ka | > 1.6e+06 M⁻¹
B6 (TIMP2 27-153) | MMP8 100-262 (Homo sapiens, UniProt P22894) | enzyme activity, inhibitor, fluorogenic peptide cleavage assay |  |  |  | Ki | 1.17 ± 0.09 nM
RGS9/GNB5 (Bos taurus) | GNAT1 (Bos taurus, UniProt P04695) | co-IP |  |  | relative to: total | Gαt associated | 10%
VIM (Homo sapiens, UniProt P08670) | CCT7 (Homo sapiens, UniProt Q99832) | cross-linking MS | cells | with: iqPIR |  | cross-linked residues | K120 to K153
ACPFGCMKNWSWPIWCTAK (Bicycle 73 bicyclic peptide; C-terminal amide/TATA scaffold, three cysteines cyclised) | NECTIN4 | fluorescence polarisation | peptide |  |  | Ki | 35.9 nM
SMC2 (Homo sapiens, UniProt O95347) | SMC4 (Homo sapiens, UniProt Q9NTJ3) | cross-linking MS | cells | with: iqPIR |  | cross-linked residues | K677 to K598
DLDSDDEY (TELO2 488-494 (Homo sapiens); pS491) | PIH1D1 51-180 R163A (Homo sapiens, UniProt Q9NWS0) | ITC | peptide |  |  | molecule per partner | 0.6

Substance | partner | test | system | conditions | scale | measurement | result
B7 | NOTCH1 237-549 (Homo sapiens, UniProt P46531) | SPR |  |  | relative to: WT DLL4, higher = tighter binding | affinity enhancement | 1030 fold
Itpr1 (Rattus norvegicus, UniProt P29994) | CISD2 (Homo sapiens, UniProt Q8N5K1) | co-IP | HEK293 | densitometry | relative to: total, higher = more co-precipitated | co-immunoprecipitation | 14.6%
B8 (CDC48A 1-190) | PUX7 171-468 (Arabidopsis thaliana, UniProt Q94JZ8) | BLI |  | 25 °C |  | koff | 6e-05 s⁻¹
aducanumab (Homo sapiens) | amyloid beta 3-end, N-terminal pyroglutamate at 3 | SiMoA |  |  |  | limit of detection | 56 pM
CDH23 EC1-2 (Anolis carolinensis) | PCDH15 EC1-2 (Anolis carolinensis) | SPR |  |  |  | kon | 30000 M⁻¹ s⁻¹
FGG (Homo sapiens, UniProt P02679) | ZGPAT (Homo sapiens, UniProt Q8N5A5) | cross-linking MS |  | with: DSSO |  | cross-linked residues | K299 to K394
APVDSMLKDMATIILSTFLLIGWVAFIITYPLSMH (IRE1α 435-469; N-terminal rhodamine label) | ERN1 435-469 peptide, N-terminal FITC (Homo sapiens) | FRET | peptide |  |  | subunits per oligomer | 4.33 ± 0.187
HSPA12B (Homo sapiens, UniProt Q96MM6) | SLC40A1 (Homo sapiens, UniProt Q9NP59) | cross-linking MS |  | with: DSSO |  | cross-linked residues | K560 to K366
bradykinin (UniProt P01042) | BDKRB2 (Homo sapiens, UniProt P30411) | Gq BRET response | BDKRB2 cells |  |  | EC50 | 0.182 nM
MRFEFESDASSHLNEVLTELESVELENVEYEGP (rec11 1-33 (Schizosaccharomyces pombe, UniProt Q92380); sequence looked up) | hhp1 1-296 (Schizosaccharomyces pombe, UniProt P40235) | pull-down |  |  |  | Ki | 32000 nM
FGB (Homo sapiens, UniProt P02675) | NIPBL (Homo sapiens, UniProt Q6KC79) | cross-linking MS |  | with: DSSO |  | cross-linked residues | K367 to K2182
CALCA CGRP 8-? (Homo sapiens) | CALCRL/RAMP1 whole, on cells, myc, HA tags (human) | cAMP accumulation, antagonist | Cos7 | with: CGRP |  | pKB | 1.9 nM
SMC5 (Saccharomyces cerevisiae, UniProt Q08204) | SMC6 | cross-linking MS |  | hits only |  | interaction screen | cross-linked
RNF2 (Homo sapiens, UniProt Q99496) | CBX8 (Homo sapiens, UniProt Q9HC52) | cross-linking MS |  | hits only |  | interaction screen | cross-linked
B9 (SIGLEC15 20-263) | GPNMB extracellular domain 23-498 (Homo sapiens, UniProt Q14956) | BLI | Fc fusion | with: sialidase | relative to: untreated GPNMB, lower = reduced binding after sialidase | relative binding | 3.12 fold
SDLACRLLGQSMDESGLPQLTSYDCEVNAPIQGSRNLLQGEELLRALDQVN (HIF1A 776-826 (Homo sapiens, UniProt Q16665); sequence looked up) | Crebbp 340-439 (Mus musculus, UniProt P45481) | competition with CITED2, competitor, fluorescence polarisation |  | apparent |  | apparent Kd | 1100 ± 200 nM
PSF2 (Saccharomyces cerevisiae, UniProt P40359) | PSF3 (Saccharomyces cerevisiae, UniProt Q12146) | cross-linking MS |  | hits only |  | interaction screen | cross-linked
ACAFGCMKNWSWPIWCTNK (Bicycle 60 bicyclic peptide; C-terminal amide/TATA scaffold, three cysteines cyclised) | NECTIN4 | fluorescence polarisation | peptide |  |  | Ki | 132 nM

Excerpt of the above:
Substance | partner | test | system | conditions | scale | measurement | result
ALB (Homo sapiens, UniProt P02768) | ZNF813 (Homo sapiens, UniProt Q6ZN06) | cross-linking MS |  | with: DSSO |  | cross-linked residues | K456 to K166
ACTA1 (Gallus gallus, UniProt P68139) | MYH1 (Oryctolagus cuniculus, UniProt A0A5F9CQ93) | laser trap |  | with: ATP 5 µM |  | binding event lifetime | 29 ± 1 ms
B2 (EFR3A 721-791) | TTC7B/FAM126B 1-308 | BLI |  |  |  | koff | 0.000121 s⁻¹
B3 (mdfA) | clpC N domain 1-150 (Bacillus subtilis, UniProt P37571) | ITC |  |  |  | ΔH | -4.66 kcal/mol
B4 (STAMBPL1 264-436) | Lys63-linked diubiquitin (Homo sapiens, UniProt P0CG48) | Lys63 diubiquitin cleavage, SDS-PAGE |  | 20-100 µM, 20 °C |  | kcat | 10.3 s⁻¹
B5 (SEPTIN7) | Septin2 (Mus musculus, UniProt P42208) | co-sedimentation |  |  |  | molecule per partner | 1
